Assay results of several laboratories.
Numbered parts are unrelated; each lists some results of a single study. Changes are numbered by the printed parent chain.

Set 1
Target: RING finger protein unkempt homolog, zinc fingers 1-6, GST-SBP tag (UNK, Homo sapiens, UniProt Q9C0B0, residues 30-357)
Technique: RNA Bind-n-Seq
Form: RNA
Medium: in vitro
Tested at: not given
Notes: RNA with constant flanks, human and mouse sites, ends assumed
Reference: input RNA pool
Reading: higher = stronger binding
Quantity: bound/input enrichment
Residues (chain): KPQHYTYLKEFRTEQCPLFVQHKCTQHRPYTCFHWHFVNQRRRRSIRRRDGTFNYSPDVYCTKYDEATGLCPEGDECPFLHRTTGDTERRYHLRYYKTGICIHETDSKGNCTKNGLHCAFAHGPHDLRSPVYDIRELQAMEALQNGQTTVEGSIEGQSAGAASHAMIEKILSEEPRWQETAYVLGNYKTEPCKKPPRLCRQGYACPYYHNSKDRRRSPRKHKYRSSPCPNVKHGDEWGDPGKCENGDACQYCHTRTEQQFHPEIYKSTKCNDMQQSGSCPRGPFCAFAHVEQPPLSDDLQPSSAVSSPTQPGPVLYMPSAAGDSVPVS
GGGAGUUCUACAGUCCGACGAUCCUACCCAGCCCUCUUCUUGUUUGUAUUUGUUUAGGGUUGUGAGGUUGUGUAAAAUAGUACUAGCUUCUUACUUGAGAACUACAGUUUCUGCUUAUCAUUUAUUCUUCCUUGUGGCACUUACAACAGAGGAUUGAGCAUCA: 0.418 ratio
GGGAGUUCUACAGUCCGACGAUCAAUGUUAAAGAACAAUUCAUCAAAAUGCUUAAAGAAAGCCAGAUGUUGACAAAUCUGAAAAGGAAGAAUGCUAAGAUGAUUUCAGAUAUCGAAAAGAAAAGGCAGCGUAUGAUUGAAGUCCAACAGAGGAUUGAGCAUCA: 0.14 ratio
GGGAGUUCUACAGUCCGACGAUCUGUGGAAGUGCCCCGUGUUUGCUAUGCCGAUGCUGUCCUAGUGGAAACAACUCCACUGUAACUAGAUUGAUCUAUGCACUUUUCUUGCUUGUUGGAGUAUGUGUAGCUUGUGUAAUGUUGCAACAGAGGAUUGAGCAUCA: 0.246 ratio
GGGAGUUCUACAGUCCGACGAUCAUGAGAGCUCCAAAACACUUUCUUCCUGAGAUGCUAAGCAAAGUGAUCAUCCUGUCACUUGAUAGAAGUGAUGAAGAUAAAGAAAAAGCAAGCUCUUUAAUCAGUUUACUCAAACAGGAACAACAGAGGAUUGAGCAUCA: 0.0873 ratio
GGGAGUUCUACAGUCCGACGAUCCAGAGCCCUCCAUAUAUGGGUGCCACAUCUCCACCCAAAGACAAGAAACGCCCAACACCUUUAGAGAUUGGUUACUCUUCUUCUCACCUUCGGGCAGACCCCACAGUCCAGCUGGCUCCUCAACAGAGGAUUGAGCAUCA: 0.487 ratio
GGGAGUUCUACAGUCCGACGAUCUGGCAAGACUACCAUCCUGUACAAACUGAAGUUGGGGGAGAUUGUCACCACCAUCCCCACUAUAGGUGAGUCCAGGACAAGGAGCGGGAAGCAGGAAUGUCGCUUUGAGCCUUGUCGGGGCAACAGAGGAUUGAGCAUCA: 0.0944 ratio
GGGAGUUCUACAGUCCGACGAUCGAAGAUGGUGGUUGUACAUUAUUCAUCUAGAAAAUAUAAAAAUUCAUUUUGUUUUGAAGCUAGUUAUUAAACUGGAAUAGCAGUUAUAUCCCUGAGAAUGGGGCCCUUCUCUUGACAUUCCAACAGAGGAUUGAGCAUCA: 16.7 ratio
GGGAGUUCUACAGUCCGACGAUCCAAGAUAAAUUUCAGACCAUGUCUGACCAGAUCAUUGGGAGAAUUGAUGAUAUGAGUAGUCGCAUUGAUGAUCUGGAAAAGAAUAUCGCGGACCUCAUGACACAGGCUGGGGUGGAAGAACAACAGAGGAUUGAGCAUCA: 0.446 ratio
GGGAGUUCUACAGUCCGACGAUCCUGCCCCUGCUCCUGCGUAACGUGCGACUGGCCCUGCUGCCCUCAGACUGCCUGAAGAAUGCCGUAUCUGGAGAGGCCCUCCUCAUGGCGGACGAGUGCACCAAGCUCAUCUUAGACGAGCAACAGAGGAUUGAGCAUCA: 0.177 ratio
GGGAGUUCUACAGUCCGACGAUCUUUGGAUCUCGCUUACAAGAAACCUUUUCGUUGGACCUUCUCAAAACUGCAUUUAUCAAUAGCUGCUACAUCAAAAGCGAAGAGGCGAAACGUCAGAGCCUUGGCAUAGAGAAAGAAGCUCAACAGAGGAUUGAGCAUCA: 0.766 ratio
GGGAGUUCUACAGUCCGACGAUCAUGUGAUGGGCAUUGAGCCACACCUCUUCUUAGACUGAAUAUUGAAGUUUUUGUUUUGAGUUAUGUUUAUAACAUUUAUUUCAGAACAAUAAAGAUUCAGAUUUGUGACAAAGGCCUUAACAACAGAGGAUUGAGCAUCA: 0.165 ratio

Set 2
Target: CCNF, cyclin fold, Cln2 fusion (human)
Technique: yeast growth competition, sequencing
Medium: yeast
Notes: strong parent motif
Reference: not given
Reading: higher = stronger binding
Quantity: normalised enrichment score
Starting sequence: ORC1 docking peptide (human); PRARKRLELGNLG
L12F: 4.77
L9R: 1.4
E8K: 0.997
L12R: 2.38
K5G: 2.05
K5S: 1.33
L12G: 2.76
A3R: 1.57
N11H: 3.89
R2K: 3.79
R6N: 1.18
R2I: 4.21
G13W: 4.05
R4H: 1.37
E8C: 1.76
G13I: 3.68
A3L: 1.02
A3F: 0.97
P1N: 3.6
P1Q: 3.61
R6Y: 1.54
A3Y: 2.19
L7V: 0.786

Set 3
Target: CEP164, C-terminal peptide (human)
Technique: DHFR complementation, deep sequencing
Medium: yeast
Notes: single substitutions, model-inferred values
Reference: wild type
Reading: higher = weaker binding
Quantity: binding free energy change
Starting sequence: PDZK1, PDZ domain 2 (human); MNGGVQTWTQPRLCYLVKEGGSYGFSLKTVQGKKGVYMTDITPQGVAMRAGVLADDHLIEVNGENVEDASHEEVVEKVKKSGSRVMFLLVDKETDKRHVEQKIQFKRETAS; partner HNRVKVYRF
S83G: 0.00742 kcal/mol
D95F: -0.351 kcal/mol
T9H: -0.038 kcal/mol
E100W: -0.139 kcal/mol
D56L: 0.121 kcal/mol
V74W: 0.911 kcal/mol
H98G: -0.164 kcal/mol
H57T: -0.277 kcal/mol
E76D: 0.00713 kcal/mol
A54S: 0.0685 kcal/mol
R49M: 0.127 kcal/mol
P43A: 0.242 kcal/mol
G63C: 0.207 kcal/mol
L88K: -0.286 kcal/mol
V99N: -0.125 kcal/mol
Q10P: 0.115 kcal/mol
K96A: -0.253 kcal/mol
K28M: -0.563 kcal/mol
Q101I: 0.0967 kcal/mol
D95Q: -0.244 kcal/mol
Q104F: -0.522 kcal/mol
V17E: -0.187 kcal/mol
G82H: 0.532 kcal/mol
V36G: 1.06 kcal/mol
T42I: -0.267 kcal/mol

Set 4
Target: RNA binding protein fox-1 homolog 2, RRM domain, GST-SBP tag (RBFOX2, Homo sapiens, UniProt O43251-10, residues 100-194)
Technique: RNA Bind-n-Seq
Form: RNA
Medium: in vitro
Tested at: 365 nM
Notes: natural RNA segment, single round, ends assumed
Reference: no-protein control
Reading: higher = stronger binding
Quantity: RBNS enrichment (R)
Target sequence (chain): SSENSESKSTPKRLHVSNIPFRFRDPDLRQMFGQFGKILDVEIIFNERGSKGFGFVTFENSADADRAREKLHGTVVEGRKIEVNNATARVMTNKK
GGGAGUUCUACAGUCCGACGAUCAAGCUCCUCUGGUUUGUCUGGUAGGUGUAAUUACGCCUGGCGAGCCCUGGGCCCGGGUUGCUAAGCAUUAAAAGCUUGCCUUUCUCCCUGCCCUUGCUCUGUUUCUGCUCUGGAAUUCUCGGGUGCCAA: 0.327
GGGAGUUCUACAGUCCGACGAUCGAAUGCCAGAGUUAGCCUCCCAGGCUUGCGGGUGGACAUGCCUGCUCCCUGCCAGCCUCCAGUGGCCUGGCCAGGCCCUCCCGAGCCUGUCUGCCCUCCCCAGGGGUGGAUGGAAUUCUCGGGUGCCAA: 7.74
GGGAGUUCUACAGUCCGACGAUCUAGAAGUAUUACAGAGAAUCAUCCUUUUAAUCACAGAUCUUAUUUUGGAGUAAAACAAACUUCUAGCUUUAGCCAGGUGUGCAUGUUGUCGCCAUUUGCAUUUUGAGUCAUGGAAUUCUCGGGUGCCAA: 21.9
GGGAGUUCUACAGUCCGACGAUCAAGGAAAUAUCAUUUAUUUAAGCAGCCUAUCAGUGAUUGCCAUUAGACUGUUGAAUACUGUUACUUUUAUAUAGAACCCAAGGAAUGCCUUCCUGUCAUAUUUUAGCCAAUGGAAUUCUCGGGUGCCAA: 0.869
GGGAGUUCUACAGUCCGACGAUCAAAUUUUGGAAUCCUCUAAACAUUUUUGUAUCUUUAAUUGUUAUUAUUAAAUCAUGUAAAAGUUCUCAAUAUUUCUGUUUUCAAGCAAAUAUUUCUUGUUUGUAAUUCUUUGGAAUUCUCGGGUGCCAA: 1.48
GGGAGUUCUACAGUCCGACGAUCUGUACAUCAGACAGAAGGGUAAUGCGUGCAGUUCCUGCUGCCUGCAGGCAGACGAGGCCUUUGCUUUACAGCACUGUAUGUGUUGCACGAUGGAUCCGUGACAGCACUUUUGGAAUUCUCGGGUGCCAA: 1.98
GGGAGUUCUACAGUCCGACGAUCGCAGGUGUGAUUGCUUUUUGCUCGUAGAUAUUAUCCUAAGUUGAAAUCCCCUAAAUCUCCCUUAGUAGCCUUUAAGUUCCCCCUUCCCUUUUUGGUAGCUGUUUUCUCUAUGGAAUUCUCGGGUGCCAA: 1.09
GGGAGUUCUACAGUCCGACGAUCCCAUGGUAAGUUGAGGCAUAUCUGUAUAUAUUUAAACCUAAUUAAUUCUUGAGCUGAAAAUAAAUAAACCAGGAUGGCAGGGACCAACCCCUAAUCCCUCCCCAGCGGCAUGGAAUUCUCGGGUGCCAA: 0.419
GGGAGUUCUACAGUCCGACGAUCUGUGAGGGCAAACUAGAAUUAGUAGUGAGAAACUGCUAAAGCUGAUUUGCCAUUUUACUGAAAUGGAAAAUGAUUUUUUUUCAAAUAAAUACUUAUAUUGUUCAUGUUCCUGGAAUUCUCGGGUGCCAA: 0.412
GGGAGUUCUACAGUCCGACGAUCCACUCAUGUCAAUCAUAUCUAUGAGACAAAUGUCUCCGAUGCUCUUCUGCGUAAAUUAAAUUGUGUACUGAAGGGAAAAGUUUGAUCAUACCAAACAUUUCCUAAACUCUUGGAAUUCUCGGGUGCCAA: 0.309
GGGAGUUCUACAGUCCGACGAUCCCAGGGUCAGAGCGCACAGCUUCAGGCAUCUCUGUCCACCAGCUAGCAGUGGAGAUGAAAUCAAGACCUUGCAAAAUGGAUACUAGGAGAUGAACAACAAUUCAACGUGCUGGAAUUCUCGGGUGCCAA: 0.404
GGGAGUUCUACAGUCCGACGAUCCUUCUCUAGGUGGACAUUAAACCAUCGUCCAAAGUACAUGAGAGUCACUGACUCUGUUCACACAACUGUAUGUCUUACUGAAGGUCCCUGAAAGAUGUUUGAGGCUUGGGUGGAAUUCUCGGGUGCCAA: 0.772

Other studies, line by line
PhoQ, residues 284 288 289 292 302 303 ASVMEA  fold induction (PhoP, residues 12 14 15 18 19 SGWQI (Escherichia coli, UniProt P23836); Sort-seq, measured: YFP reporter; E. coli; PhoQ-PhoP variant library, together with: 10 µM Mg2+; reference: high Mg2+ state, higher = stronger signaling): 1.07

Some of these lines once more (set 1):
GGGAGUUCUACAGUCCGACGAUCCUGCCCCUGCUCCUGCGUAACGUGCGACUGGCCCUGCUGCCCUCAGACUGCCUGAAGAAUGCCGUAUCUGGAGAGGCCCUCCUCAUGGCGGACGAGUGCACCAAGCUCAUCUUAGACGAGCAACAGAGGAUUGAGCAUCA: 0.177 ratio
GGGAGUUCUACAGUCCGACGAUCCAGAGCCCUCCAUAUAUGGGUGCCACAUCUCCACCCAAAGACAAGAAACGCCCAACACCUUUAGAGAUUGGUUACUCUUCUUCUCACCUUCGGGCAGACCCCACAGUCCAGCUGGCUCCUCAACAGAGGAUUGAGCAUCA: 0.487 ratio
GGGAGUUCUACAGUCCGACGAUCUGGCAAGACUACCAUCCUGUACAAACUGAAGUUGGGGGAGAUUGUCACCACCAUCCCCACUAUAGGUGAGUCCAGGACAAGGAGCGGGAAGCAGGAAUGUCGCUUUGAGCCUUGUCGGGGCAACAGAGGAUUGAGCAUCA: 0.0944 ratio
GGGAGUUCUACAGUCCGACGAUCAUGUGAUGGGCAUUGAGCCACACCUCUUCUUAGACUGAAUAUUGAAGUUUUUGUUUUGAGUUAUGUUUAUAACAUUUAUUUCAGAACAAUAAAGAUUCAGAUUUGUGACAAAGGCCUUAACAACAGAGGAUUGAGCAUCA: 0.165 ratio
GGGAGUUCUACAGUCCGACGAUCAAUGUUAAAGAACAAUUCAUCAAAAUGCUUAAAGAAAGCCAGAUGUUGACAAAUCUGAAAAGGAAGAAUGCUAAGAUGAUUUCAGAUAUCGAAAAGAAAAGGCAGCGUAUGAUUGAAGUCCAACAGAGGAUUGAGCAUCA: 0.14 ratio
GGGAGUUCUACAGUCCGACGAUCAUGAGAGCUCCAAAACACUUUCUUCCUGAGAUGCUAAGCAAAGUGAUCAUCCUGUCACUUGAUAGAAGUGAUGAAGAUAAAGAAAAAGCAAGCUCUUUAAUCAGUUUACUCAAACAGGAACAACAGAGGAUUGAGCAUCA: 0.0873 ratio
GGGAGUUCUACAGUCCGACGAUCGAAGAUGGUGGUUGUACAUUAUUCAUCUAGAAAAUAUAAAAAUUCAUUUUGUUUUGAAGCUAGUUAUUAAACUGGAAUAGCAGUUAUAUCCCUGAGAAUGGGGCCCUUCUCUUGACAUUCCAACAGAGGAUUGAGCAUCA: 16.7 ratio
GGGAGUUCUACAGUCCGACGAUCCAAGAUAAAUUUCAGACCAUGUCUGACCAGAUCAUUGGGAGAAUUGAUGAUAUGAGUAGUCGCAUUGAUGAUCUGGAAAAGAAUAUCGCGGACCUCAUGACACAGGCUGGGGUGGAAGAACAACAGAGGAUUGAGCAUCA: 0.446 ratio
